Assay results pooled from the literature.
Protocols differ between the studies behind these lines.
MTOR: Serine/threonine-protein kinase mTOR (MTOR, Homo sapiens, UniProt P42345)
UniProt P27361, sequence (whole entry, looked up): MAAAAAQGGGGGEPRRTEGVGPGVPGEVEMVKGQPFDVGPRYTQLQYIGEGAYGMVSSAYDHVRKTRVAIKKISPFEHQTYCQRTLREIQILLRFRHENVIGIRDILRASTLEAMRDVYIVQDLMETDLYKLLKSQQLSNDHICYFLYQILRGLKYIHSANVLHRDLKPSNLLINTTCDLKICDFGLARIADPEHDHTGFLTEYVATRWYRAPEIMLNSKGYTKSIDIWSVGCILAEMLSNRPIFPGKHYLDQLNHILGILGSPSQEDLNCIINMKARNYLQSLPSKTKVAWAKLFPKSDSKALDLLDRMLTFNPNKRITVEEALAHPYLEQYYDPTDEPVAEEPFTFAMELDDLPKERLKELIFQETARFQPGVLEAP
UniProt Q13470, sequence (whole entry, looked up): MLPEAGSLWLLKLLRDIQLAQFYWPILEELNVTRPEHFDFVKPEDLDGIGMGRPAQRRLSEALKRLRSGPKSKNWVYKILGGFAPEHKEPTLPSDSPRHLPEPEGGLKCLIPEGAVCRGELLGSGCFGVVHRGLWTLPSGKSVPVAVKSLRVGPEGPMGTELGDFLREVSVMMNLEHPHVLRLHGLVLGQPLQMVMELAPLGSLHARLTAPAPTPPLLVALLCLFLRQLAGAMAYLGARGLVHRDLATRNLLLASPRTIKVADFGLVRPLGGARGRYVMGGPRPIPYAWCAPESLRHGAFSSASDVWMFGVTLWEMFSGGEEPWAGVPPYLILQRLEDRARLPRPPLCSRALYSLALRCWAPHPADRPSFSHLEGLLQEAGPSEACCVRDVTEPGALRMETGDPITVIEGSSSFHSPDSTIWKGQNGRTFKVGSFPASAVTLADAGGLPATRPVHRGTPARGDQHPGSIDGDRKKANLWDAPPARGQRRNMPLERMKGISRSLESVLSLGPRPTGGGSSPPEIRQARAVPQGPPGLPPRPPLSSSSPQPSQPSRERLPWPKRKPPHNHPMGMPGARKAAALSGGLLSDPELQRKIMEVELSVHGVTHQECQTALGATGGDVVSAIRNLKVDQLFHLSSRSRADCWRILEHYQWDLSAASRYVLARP
UniProt P42336, sequence (whole entry, unmodified, looked up): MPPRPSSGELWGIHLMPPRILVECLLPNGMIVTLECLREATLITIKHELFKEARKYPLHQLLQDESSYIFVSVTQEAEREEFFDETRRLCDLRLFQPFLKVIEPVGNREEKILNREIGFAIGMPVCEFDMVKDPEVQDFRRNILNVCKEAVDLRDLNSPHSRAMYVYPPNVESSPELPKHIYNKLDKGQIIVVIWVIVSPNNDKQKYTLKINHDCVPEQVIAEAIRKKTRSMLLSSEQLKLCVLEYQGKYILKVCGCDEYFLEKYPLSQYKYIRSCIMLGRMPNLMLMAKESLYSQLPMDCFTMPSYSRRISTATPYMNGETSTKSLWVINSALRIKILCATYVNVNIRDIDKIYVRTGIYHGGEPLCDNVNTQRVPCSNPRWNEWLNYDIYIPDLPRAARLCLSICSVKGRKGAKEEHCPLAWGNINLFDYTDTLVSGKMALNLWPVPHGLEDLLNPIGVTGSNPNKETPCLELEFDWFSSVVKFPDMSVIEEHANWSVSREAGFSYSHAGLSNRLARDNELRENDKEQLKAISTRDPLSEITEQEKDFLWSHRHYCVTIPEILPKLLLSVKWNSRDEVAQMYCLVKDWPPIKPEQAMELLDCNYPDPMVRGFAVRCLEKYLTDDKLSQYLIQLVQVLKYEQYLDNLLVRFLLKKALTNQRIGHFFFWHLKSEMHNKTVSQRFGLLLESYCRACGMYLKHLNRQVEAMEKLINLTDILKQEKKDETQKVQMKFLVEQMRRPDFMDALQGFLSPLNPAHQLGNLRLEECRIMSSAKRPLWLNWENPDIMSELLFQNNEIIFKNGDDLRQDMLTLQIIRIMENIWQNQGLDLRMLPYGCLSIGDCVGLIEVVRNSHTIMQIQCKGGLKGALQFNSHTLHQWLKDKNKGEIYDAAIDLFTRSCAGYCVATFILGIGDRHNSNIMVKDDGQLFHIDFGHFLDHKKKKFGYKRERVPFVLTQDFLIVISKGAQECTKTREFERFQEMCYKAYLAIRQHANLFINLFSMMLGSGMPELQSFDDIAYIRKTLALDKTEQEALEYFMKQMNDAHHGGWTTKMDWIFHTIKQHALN

CN[C@H](CC(C)C)C(=O)N[C@H]1C(=O)N[C@@H](CC(N)=O)C(=O)N[C@H]2C(=O)N[C@H]3C(=O)N[C@H](C(=O)N[C@H](C(=O)O)c4cc(O)cc(O)c4-c4cc3ccc4O)[C@H](O)c3ccc(c(Cl)c3)Oc3cc2cc(c3O[C@@H]2O[C@H](CO)[C@@H](O)[C@H](O)[C@H]2O[C@H]2C[C@](C)(N)[C@H](O)[C@H](C)O2)Oc2ccc(cc2Cl)[C@H]1O has an MIC of 2 µM (Enterococcus faecalis; microbial growth, broth dilution; NCTC12697).
For CC[C@H]1OC(=O)[C@H](C)[C@@H](O[C@H]2C[C@@](C)(OC)[C@@H](O)[C@H](C)O2)[C@H](C)[C@@H](O[C@@H]2O[C@H](C)C[C@H](N(C)C)[C@H]2O)[C@](C)(OC)C[C@@H](C)C(=O)[C@H](C)[C@@H](O)[C@]1(C)O, the inhibition was 100% (Helicobacter pylori; microbial growth, broth dilution; 15.63 µg/mL).
The MIC of Clc1ccc(Nc2cc3nc4ccccc4n(-c4ccc(Cl)cc4)c-3c/c2=N\OCc2ccccc2)cc1 is reported as 3.75 µM (Mycobacterium avium; microbial growth; ATCC700898).
For CN(Cc1ccc(C(C)(C)C)cc1)Cc1cccc2ccccc12, the MIC was 120 µg/mL (Trichophyton mentagrophytes; microbial growth, broth dilution; ATCC18748; 72 h).
The MIC of Cl.N[C@@H]1CCN(c2cc(C(=O)NCC(=O)O)ccc2NC(=O)c2cc(Br)c(Br)[nH]2)C1 is reported as > 32 µg/mL (Acinetobacter baumannii; microbial growth, broth dilution; ATCC19606).
With C=CCO/N=c1\cc2n(-c3ccc(Cl)cc3)c3ccccc3nc-2cc1Nc1ccc(Cl)cc1 the MIC was 0.94 µM (Mycobacterium avium; microbial growth; ATCC700898).
For O=C1C(Br)=C(Br)C(=O)c2ccccc21, the MIC was < 1.56 µg/mL (Pichia kudriavzevii; microbial growth, broth dilution; ATCC34135; 24 h).
For Cc1[nH]c(C(=O)Nc2ccc(C(=O)NCc3n[nH]c(=O)o3)cc2N2CCNCC2)c(Cl)c1Cl.Cl, the MIC was > 32 µg/mL (Klebsiella aerogenes; microbial growth, broth dilution; ATCC13408).
With CCCN(O)N=Nc1ccc(S(=O)(=O)Nc2nccs2)cc1 the inhibition was 14.1% (DPPH scavenging, absorbance; 120 µg/mL).
The MIC of C[C@H](NC(=O)CO/N=c1\cc2n(-c3ccc(Cl)cc3)c3ccccc3nc-2cc1Nc1ccc(Cl)cc1)C(=O)O is reported as 1.88 µM (Mycobacterium avium; microbial growth; ATCC700898).
With CC(=O)NC[C@H]1CN(c2ccc(N3CCOCC3)c(F)c2)C(=O)O1 the MIC was 1 µg/mL (Streptococcus pneumoniae; microbial growth; PRSP).
OC(Cn1cncn1)(Cn1cncn1)c1ccc(F)cc1F has an MIC of 1 µg/mL (Clavispora lusitaniae; microbial growth, broth dilution; MY1396).
For C=CC(=O)N1CCC(COCC(=O)N2CCN(c3nc(-c4cnc(N)nc4C(F)F)nc(N4CCOC[C@@H]4C)n3)CC2)CC1, the remaining binding was 0% (PIK3CA (Homo sapiens, UniProt P42336, H1047L); binding, competition with immobilised ligand; 1 µM).
For O=C1OC[C@H]2OC(O)[C@H](O)[C@@H](O)[C@@H]2OC(=O)c2cc(O)c(O)c(O)c2-c2c(O)c(O)c3oc(=O)c4c(c(O)c(O)c5oc(=O)c2c3c54)-c2c1cc(O)c(O)c2O (mixture of isomers), the MIC was 100 µg/mL (Streptococcus mutans; microbial growth, broth dilution; 24 h).
Cc1[nH]c(C(=O)Nc2ccc(C(=O)NCC(=O)O)cc2N2CC[C@H](N)C2)c(Cl)c1Cl.Cl gave an MIC of > 32 µg/mL (Acinetobacter baumannii; microbial growth, broth dilution; ATCC19606).
With CCCCC(=O)Nc1ccc(-c2ccc3ncn(CCC)c(=O)c3c2)cn1 the remaining binding was 100% (TNK1 (Homo sapiens, UniProt Q13470); binding, competition with immobilised ligand; 0.5 µM).
CC(C)(C)OC(=O)N1CCN(c2cc(C(=O)NCC(=O)O)ccc2NC(=O)c2cc(Br)c(Br)[nH]2)CC1 has an MIC of > 32 µg/mL (Acinetobacter baumannii; microbial growth, broth dilution; ATCC19606).
CNc1ncc2c(/C=C/C(=O)N3CCC(OC)CC3)nn(Cc3cccc(C(F)(F)F)c3)c2n1 gave a remaining activity of 96% (MTOR; enzyme activity, inhibitor, radiometric; 1 µM).
With O=C(Nc1ccc(Oc2nnc(-c3ccc(Cl)cc3)c3ccccc23)cc1)c1ccccc1 the cell death was 95.9% (HepG2; cell growth or viability, MTT; 10 µM).
CC(C)(C)OC(=O)N[C@@H]1CCN(c2cc(C(=O)NCC(=O)O)ccc2NC(=O)c2cc(Br)c(Br)[nH]2)C1 has an MIC of > 32 µg/mL (Acinetobacter baumannii; microbial growth, broth dilution; ATCC19606).
C=C/C=C(\C)CC[C@@H]1C[C@H](O)CC(=O)O1 has an MIC of 128 µg/mL (Salmonella enterica; microbial growth; ATCC14028 TYPHIMURIUM).
With CC1(C)S[C@@H]2[C@H](NC(=O)[C@H](N)c3ccccc3)C(=O)N2[C@H]1C(=O)O the MIC was > 40 µM (Vibrio alginolyticus; microbial growth; 24 h).
For O=C(O)CNC(=O)CO/N=c1\cc2n(-c3ccc(Cl)cc3)c3ccccc3nc-2cc1Nc1ccc(Cl)cc1, the MIC was 0.12 µM (Mycobacterium avium; microbial growth; ATCC700898).
COc1cc(-c2cncc3c2CN(C)Cc2cc(N4CCNCC4)ccc2-3)cc(OC)c1OC gave a remaining activity of 102% (MTOR; enzyme activity, inhibitor; 1 µM).
The inhibition of Cc1noc(NS(=O)(=O)c2ccc(N=NN(O)c3ccccc3)cc2)c1C is reported as 10.9% (DPPH scavenging, absorbance; 60 µg/mL).
With Cc1cc([C@@H](C)Nc2ccccc2C(=O)O)c2nc(N3CCC(F)(F)CC3)c(C#N)c(=O)n2c1 the remaining binding was 100% (MAPK3 (Homo sapiens, UniProt P27361); binding, competition with immobilised ligand; 10 µM).
C[C@@H]1[C@H](O)[C@@H](C)/C=C/C=C/C=C/C=C/C=C/C=C/C=C/[C@H](O[C@@H]2O[C@H](C)[C@@H](O)[C@H](N)[C@@H]2O)C[C@@H]2O[C@](O)(C[C@@H](O)C[C@@H](O)[C@H](O)CC[C@@H](O)C[C@@H](O)CC(=O)O[C@H]1C)C[C@H](O)[C@H]2C(=O)O has an MIC of 4 µg/mL (Pichia kudriavzevii; microbial growth, broth dilution; ATCC34135; 24 h).
Cl.O=C(O)CNC(=O)c1ccc(NC(=O)c2cc(Br)c(Br)[nH]2)c(N2CCNCC2)c1 has an MIC of > 32 µg/mL (Acinetobacter baumannii; microbial growth, broth dilution; ATCC19606).
The MIC of O=C(CO/N=c1\cc2n(-c3ccc(Cl)cc3)c3ccccc3nc-2cc1Nc1ccc(Cl)cc1)NCc1ccc2c(c1)CCO2 is reported as > 30 µM (Mycobacterium avium; microbial growth; clinical isolate).
The MIC of Cc1[nH]c(C(=O)Nc2ccc(C(=O)NCc3n[nH]c(=O)o3)cc2N2CCN(C(=O)OC(C)(C)C)CC2)c(Cl)c1Cl is reported as 32 µg/mL (Enterococcus faecium; microbial growth, broth dilution; ATCC35667).
Cc1c(CN(C)C(=O)/C=C/c2cnc3c(c2)CCC(=O)N3)oc2ccccc12 has an MIC of > 32 µg/mL (Acinetobacter baumannii; microbial growth, broth dilution).
Cc1[nH]c(C(=O)Nc2ccc(C(=O)NCC(=O)O)cc2N2CC[C@@H](NC(=O)OC(C)(C)C)C2)c(Cl)c1Cl has an MIC of > 32 µg/mL (Acinetobacter baumannii; microbial growth, broth dilution; ATCC19606).
CN[C@H](CC(C)C)C(=O)N[C@H]1C(=O)N[C@@H](CC(N)=O)C(=O)N[C@H]2C(=O)N[C@H]3C(=O)N[C@H](C(=O)N[C@H](C(=O)O)c4cc(O)cc(O)c4-c4cc3ccc4O)[C@H](O)c3ccc(c(Cl)c3)Oc3cc2cc(c3O[C@@H]2O[C@H](CO)[C@@H](O)[C@H](O)[C@H]2O[C@H]2C[C@](C)(N)[C@H](O)[C@H](C)O2)Oc2ccc(cc2Cl)[C@H]1O has an MIC of 0.24 µg/mL (Streptococcus pyogenes; microbial growth, broth dilution; ATCC19615).

For quick reference, copied from above:
COc1cc(-c2cncc3c2CN(C)Cc2cc(N4CCNCC4)ccc2-3)cc(OC)c1OC gave a remaining activity of 102% (MTOR; enzyme activity, inhibitor; 1 µM).
The inhibition of Cc1noc(NS(=O)(=O)c2ccc(N=NN(O)c3ccccc3)cc2)c1C is reported as 10.9% (DPPH scavenging, absorbance; 60 µg/mL).
With Cc1cc([C@@H](C)Nc2ccccc2C(=O)O)c2nc(N3CCC(F)(F)CC3)c(C#N)c(=O)n2c1 the remaining binding was 100% (MAPK3 (Homo sapiens, UniProt P27361); binding, competition with immobilised ligand; 10 µM).
C[C@@H]1[C@H](O)[C@@H](C)/C=C/C=C/C=C/C=C/C=C/C=C/C=C/[C@H](O[C@@H]2O[C@H](C)[C@@H](O)[C@H](N)[C@@H]2O)C[C@@H]2O[C@](O)(C[C@@H](O)C[C@@H](O)[C@H](O)CC[C@@H](O)C[C@@H](O)CC(=O)O[C@H]1C)C[C@H](O)[C@H]2C(=O)O has an MIC of 4 µg/mL (Pichia kudriavzevii; microbial growth, broth dilution; ATCC34135; 24 h).
Cl.O=C(O)CNC(=O)c1ccc(NC(=O)c2cc(Br)c(Br)[nH]2)c(N2CCNCC2)c1 has an MIC of > 32 µg/mL (Acinetobacter baumannii; microbial growth, broth dilution; ATCC19606).
